{"data": "Results collected from several papers", "note": "Parts stem from different laboratories: compare values within a part only.", "sequence of UniProt P29320 (whole entry, looked up)": "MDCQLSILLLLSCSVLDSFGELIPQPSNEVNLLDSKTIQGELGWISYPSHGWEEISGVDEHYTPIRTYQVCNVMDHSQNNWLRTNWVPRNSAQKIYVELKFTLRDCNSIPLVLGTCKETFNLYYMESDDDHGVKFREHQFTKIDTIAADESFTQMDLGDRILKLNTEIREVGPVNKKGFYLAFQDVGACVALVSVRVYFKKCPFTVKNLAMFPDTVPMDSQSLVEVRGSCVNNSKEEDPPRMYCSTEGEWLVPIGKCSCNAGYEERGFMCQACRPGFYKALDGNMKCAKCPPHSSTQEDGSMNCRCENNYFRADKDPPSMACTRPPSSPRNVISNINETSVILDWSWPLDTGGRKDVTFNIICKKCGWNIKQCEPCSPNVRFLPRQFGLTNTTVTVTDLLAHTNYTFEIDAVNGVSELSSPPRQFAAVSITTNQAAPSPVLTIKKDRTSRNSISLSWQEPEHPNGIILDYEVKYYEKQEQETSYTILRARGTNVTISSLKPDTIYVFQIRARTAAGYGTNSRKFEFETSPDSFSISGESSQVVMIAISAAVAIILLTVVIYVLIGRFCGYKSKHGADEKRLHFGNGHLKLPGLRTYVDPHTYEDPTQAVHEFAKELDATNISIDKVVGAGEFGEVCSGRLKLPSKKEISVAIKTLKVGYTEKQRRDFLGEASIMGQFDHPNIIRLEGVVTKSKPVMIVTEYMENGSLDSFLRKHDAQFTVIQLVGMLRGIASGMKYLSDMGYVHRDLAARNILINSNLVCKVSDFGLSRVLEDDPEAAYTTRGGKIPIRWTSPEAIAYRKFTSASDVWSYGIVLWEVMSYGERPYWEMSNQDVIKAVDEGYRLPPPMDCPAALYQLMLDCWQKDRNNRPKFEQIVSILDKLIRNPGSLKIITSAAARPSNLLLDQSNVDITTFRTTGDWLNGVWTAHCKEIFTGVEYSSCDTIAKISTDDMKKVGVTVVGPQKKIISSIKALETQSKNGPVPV", "sequence of UniProt Q02763 (whole entry, looked up)": "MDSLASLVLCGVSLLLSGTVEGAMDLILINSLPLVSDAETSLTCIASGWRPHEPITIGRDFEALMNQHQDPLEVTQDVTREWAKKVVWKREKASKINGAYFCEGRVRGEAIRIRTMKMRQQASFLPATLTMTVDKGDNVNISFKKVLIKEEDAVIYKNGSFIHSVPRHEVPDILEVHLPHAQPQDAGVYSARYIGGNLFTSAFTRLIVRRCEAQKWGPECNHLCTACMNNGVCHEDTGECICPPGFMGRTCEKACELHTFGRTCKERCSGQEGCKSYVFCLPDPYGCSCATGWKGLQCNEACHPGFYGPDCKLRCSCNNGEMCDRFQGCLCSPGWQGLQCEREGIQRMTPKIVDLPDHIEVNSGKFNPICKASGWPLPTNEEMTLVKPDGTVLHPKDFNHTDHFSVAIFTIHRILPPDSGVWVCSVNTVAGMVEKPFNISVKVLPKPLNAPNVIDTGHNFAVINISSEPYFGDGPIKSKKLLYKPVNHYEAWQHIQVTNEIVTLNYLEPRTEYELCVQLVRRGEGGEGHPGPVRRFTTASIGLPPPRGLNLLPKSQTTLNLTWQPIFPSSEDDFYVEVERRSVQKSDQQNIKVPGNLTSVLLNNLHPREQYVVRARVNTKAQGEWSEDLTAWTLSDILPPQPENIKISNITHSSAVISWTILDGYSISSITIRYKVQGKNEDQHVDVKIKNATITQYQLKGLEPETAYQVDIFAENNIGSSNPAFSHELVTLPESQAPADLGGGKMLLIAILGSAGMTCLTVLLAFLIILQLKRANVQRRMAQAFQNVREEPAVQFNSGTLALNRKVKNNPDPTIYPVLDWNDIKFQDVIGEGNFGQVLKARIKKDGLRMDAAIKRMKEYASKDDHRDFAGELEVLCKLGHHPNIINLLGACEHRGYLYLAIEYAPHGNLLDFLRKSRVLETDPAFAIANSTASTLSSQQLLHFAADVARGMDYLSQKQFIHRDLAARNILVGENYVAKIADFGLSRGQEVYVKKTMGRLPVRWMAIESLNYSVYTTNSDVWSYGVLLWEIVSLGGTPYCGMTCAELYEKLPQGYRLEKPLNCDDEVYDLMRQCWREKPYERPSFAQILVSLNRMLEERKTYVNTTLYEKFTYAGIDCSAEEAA", "sequence of UniProt P22607 (whole entry, looked up)": "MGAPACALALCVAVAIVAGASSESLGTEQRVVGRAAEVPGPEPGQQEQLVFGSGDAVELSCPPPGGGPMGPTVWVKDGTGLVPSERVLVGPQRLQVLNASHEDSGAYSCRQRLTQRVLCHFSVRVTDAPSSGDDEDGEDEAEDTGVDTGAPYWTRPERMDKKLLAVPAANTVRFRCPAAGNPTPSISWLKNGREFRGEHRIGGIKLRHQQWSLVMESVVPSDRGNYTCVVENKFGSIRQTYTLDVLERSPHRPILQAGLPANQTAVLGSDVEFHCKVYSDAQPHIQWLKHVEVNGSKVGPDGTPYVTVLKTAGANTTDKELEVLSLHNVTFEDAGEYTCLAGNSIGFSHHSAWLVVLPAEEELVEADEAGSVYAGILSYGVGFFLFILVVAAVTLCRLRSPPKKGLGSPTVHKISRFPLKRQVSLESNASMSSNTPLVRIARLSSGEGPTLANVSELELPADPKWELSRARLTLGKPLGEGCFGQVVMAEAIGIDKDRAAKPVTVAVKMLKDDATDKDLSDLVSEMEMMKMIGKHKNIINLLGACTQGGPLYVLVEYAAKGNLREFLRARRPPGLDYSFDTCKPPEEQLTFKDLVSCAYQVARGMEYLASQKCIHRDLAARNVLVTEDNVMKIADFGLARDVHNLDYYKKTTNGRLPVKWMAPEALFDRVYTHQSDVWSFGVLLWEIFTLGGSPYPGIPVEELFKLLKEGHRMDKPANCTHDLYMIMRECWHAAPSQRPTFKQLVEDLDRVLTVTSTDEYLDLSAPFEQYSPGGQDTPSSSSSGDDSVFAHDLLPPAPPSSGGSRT", "sequence of UniProt Q9HC98 (whole entry, looked up)": "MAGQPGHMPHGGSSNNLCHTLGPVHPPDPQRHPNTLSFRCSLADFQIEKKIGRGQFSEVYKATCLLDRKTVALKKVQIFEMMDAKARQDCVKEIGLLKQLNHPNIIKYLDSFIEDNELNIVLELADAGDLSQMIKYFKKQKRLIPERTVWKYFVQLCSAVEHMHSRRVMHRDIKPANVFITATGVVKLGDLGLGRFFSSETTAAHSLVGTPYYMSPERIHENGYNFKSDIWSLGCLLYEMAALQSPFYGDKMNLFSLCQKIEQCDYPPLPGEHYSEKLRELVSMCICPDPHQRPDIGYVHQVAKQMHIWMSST", "sequence of UniProt P49841 (whole entry, looked up)": "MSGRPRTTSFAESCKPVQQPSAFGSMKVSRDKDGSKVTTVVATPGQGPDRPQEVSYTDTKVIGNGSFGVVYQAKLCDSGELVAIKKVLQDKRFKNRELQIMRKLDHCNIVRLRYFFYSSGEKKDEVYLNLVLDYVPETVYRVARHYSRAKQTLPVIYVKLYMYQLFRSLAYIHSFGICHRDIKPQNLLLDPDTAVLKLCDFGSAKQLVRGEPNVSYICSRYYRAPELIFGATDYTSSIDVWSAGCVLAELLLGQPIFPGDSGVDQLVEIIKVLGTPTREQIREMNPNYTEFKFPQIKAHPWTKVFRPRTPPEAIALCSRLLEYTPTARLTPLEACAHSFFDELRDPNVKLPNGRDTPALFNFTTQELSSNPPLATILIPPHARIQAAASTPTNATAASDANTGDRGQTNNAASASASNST", "sequence of UniProt P27361 (whole entry, looked up)": "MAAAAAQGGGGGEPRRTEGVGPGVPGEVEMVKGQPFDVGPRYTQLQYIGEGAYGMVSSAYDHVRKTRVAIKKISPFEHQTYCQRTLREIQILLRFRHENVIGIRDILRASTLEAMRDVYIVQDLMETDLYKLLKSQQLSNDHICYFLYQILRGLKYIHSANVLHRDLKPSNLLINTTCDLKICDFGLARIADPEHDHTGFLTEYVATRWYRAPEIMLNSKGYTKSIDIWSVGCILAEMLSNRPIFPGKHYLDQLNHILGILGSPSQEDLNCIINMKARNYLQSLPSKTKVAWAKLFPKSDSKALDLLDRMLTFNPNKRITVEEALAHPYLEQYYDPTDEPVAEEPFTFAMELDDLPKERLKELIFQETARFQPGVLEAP"}
{"data": "Sample 1", "SMILES": "Cc1ccc(S(=O)(=O)/C=C/C#N)cc1", "read-out": "enzyme activity", "mode": "inhibitor", "tested at": "0.5 µM", "reference": "control"}
{"target": "MAP3K5 (Homo sapiens, UniProt Q99683)", "remaining activity [%]": 100}
{"target": "NEK6 (Homo sapiens, UniProt Q9HC98)", "remaining activity [%]": 108}
{"target": "TBK1 (Homo sapiens, UniProt Q9UHD2)", "remaining activity [%]": 83.9}
{"target": "ACVR1B (Homo sapiens, UniProt P36896)", "remaining activity [%]": 107}
{"target": "EPHA3 (Homo sapiens, UniProt P29320)", "remaining activity [%]": 95}
{"target": "MAPK3 (Homo sapiens, UniProt P27361)", "remaining activity [%]": 98.2}
{"target": "ULK2 (Homo sapiens, UniProt Q8IYT8)", "remaining activity [%]": 110}
{"target": "MAP2K2 (Homo sapiens, UniProt P36507)", "remaining activity [%]": 91}
{"target": "GSK3B (Homo sapiens, UniProt P49841)", "remaining activity [%]": 109}
{"target": "FGFR3 (Homo sapiens, UniProt P22607)", "remaining activity [%]": 95.2}
{"target": "LCK (Homo sapiens, UniProt P06239)", "remaining activity [%]": 93.7}
{"target": "TEK (Homo sapiens, UniProt Q02763)", "remaining activity [%]": 101}
{"target": "CSNK1G2 (Homo sapiens, UniProt P78368)", "remaining activity [%]": 98.6}
{"data": "Sample 2", "target": "TAR DNA-binding protein 43, full length, His tag (TARDBP, Homo sapiens, UniProt Q13148, residues 1-414)", "method": "RNA Bind-n-Seq", "molecule type": "RNA", "medium": "in vitro", "tested at": "20 nM", "notes": "6-mer, flanks averaged, single round", "with": "150 mM LiCl", "reference": "input library", "direction": "higher = stronger binding"}
{"Strand": "CAAAUA", "6-mer enrichment (R)": 0.898}
{"Strand": "CCCAUU", "6-mer enrichment (R)": 1.09}
{"Strand": "UUACUA", "6-mer enrichment (R)": 0.906}
{"Strand": "CCUGCU", "6-mer enrichment (R)": 0.934}
{"Strand": "AUUCUA", "6-mer enrichment (R)": 0.881}
{"Strand": "AAAGGC", "6-mer enrichment (R)": 0.846}
{"Strand": "AACCAA", "6-mer enrichment (R)": 0.834}
{"Strand": "GACAUG", "6-mer enrichment (R)": 0.941}
{"data": "Sample 3", "target": "Alpha-2B adrenergic receptor (ADRA2B, Homo sapiens, UniProt P18089)", "read-out": "binding", "method": "radioligand binding", "tested at": "10 µM", "sequence of UniProt P18089 (whole entry, looked up)": "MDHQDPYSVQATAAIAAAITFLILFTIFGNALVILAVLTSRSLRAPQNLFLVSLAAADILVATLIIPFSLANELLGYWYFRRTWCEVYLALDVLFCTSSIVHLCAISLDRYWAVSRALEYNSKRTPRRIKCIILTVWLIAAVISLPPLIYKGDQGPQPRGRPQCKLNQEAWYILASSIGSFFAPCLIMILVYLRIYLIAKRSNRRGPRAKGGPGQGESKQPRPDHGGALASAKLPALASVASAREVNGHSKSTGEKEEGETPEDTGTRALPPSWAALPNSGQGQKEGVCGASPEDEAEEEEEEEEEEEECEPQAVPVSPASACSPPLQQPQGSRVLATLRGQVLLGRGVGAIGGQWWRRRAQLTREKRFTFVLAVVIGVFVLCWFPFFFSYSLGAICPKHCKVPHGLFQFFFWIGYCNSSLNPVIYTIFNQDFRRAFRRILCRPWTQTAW"}
{"Compound": "COc1cc(-c2cn(C3CCc4ccccc4N(CC(F)(F)F)C3=O)nn2)ccc1-n1ccc(C)n1 (stereo not drawn)", "inhibition [%]": 7.14}
{"Compound": "Cc1c(N2CCCC2)nc2ccc(Br)cc2c1C(=O)NC[C@H](CCC(=O)O)c1ccccc1Cl", "inhibition [%]": -20.9}
{"Compound": "Cc1nccc(COC(=O)N2C[C@@H]3[C@@H](CNC(=O)c4ccc5[nH]nnc5c4)[C@@H]3C2)n1", "inhibition [%]": 1.15}
{"Compound": "COCc1nc2cnc3cc(-c4c(C)noc4C)c(OC[C@H]4CCNC4)cc3c2n1[C@H](C)c1ccccc1", "inhibition [%]": -13.6}
{"Compound": "COc1cccc(CNC(=O)c2nc3scc(COCc4ccc(C(=O)O)cc4)c3c(=O)[nH]2)c1", "inhibition [%]": 11}
{"Compound": "C[C@@]1(Cc2ccc(C#N)cc2)C(=O)N(c2cc(Cl)cc(Cl)c2)c2ncc(C(=O)NC3(c4nc(C5CCC5)no4)CC3)n21", "inhibition [%]": 15}
{"Compound": "CCOC(=O)c1cc2cc(-c3cc(C(=O)NCc4ccc(C(=O)O)cc4)nn3C)ccc2[nH]1", "inhibition [%]": 16.4}
{"Compound": "O=C(Nc1ccc(-n2nc(-c3cccnc3)cc2C(F)(F)F)cn1)c1ccc(-c2ccccc2)c(F)c1", "inhibition [%]": 1.26}
{"Compound": "O=C(O)c1cc(-c2ccc(C3CCNCC3)cc2)c2ccc(-c3ccc(C(F)(F)F)cc3)cc2c1", "inhibition [%]": 85.4}
{"Compound": "C[C@H](NC(=O)c1cnc2n1[C@](C)(Cc1ccc(C#N)cc1)C(=O)N2c1cc(Cl)c(F)c(Cl)c1)C(=O)NC1(c2ccccn2)CC1", "inhibition [%]": -3.79}
{"data": "Sample 4", "target": "Ras GTPase-activating protein-binding protein 1, full length (G3BP1, Homo sapiens, UniProt Q13283)", "method": "RNA Bind-n-Seq", "molecule type": "RNA", "medium": "in vitro", "tested at": "200 nM", "notes": "whole 134-nt RNA, ends assumed", "with": "150 mM KCl", "reference": "input library", "direction": "higher = stronger binding", "constant ends, left off below": "GGGAGUUCUACAGUCCGACGAUC … UGGAAUUCUCGGGUGUCAAGG", "sequence of UniProt Q13283 (whole entry, looked up)": "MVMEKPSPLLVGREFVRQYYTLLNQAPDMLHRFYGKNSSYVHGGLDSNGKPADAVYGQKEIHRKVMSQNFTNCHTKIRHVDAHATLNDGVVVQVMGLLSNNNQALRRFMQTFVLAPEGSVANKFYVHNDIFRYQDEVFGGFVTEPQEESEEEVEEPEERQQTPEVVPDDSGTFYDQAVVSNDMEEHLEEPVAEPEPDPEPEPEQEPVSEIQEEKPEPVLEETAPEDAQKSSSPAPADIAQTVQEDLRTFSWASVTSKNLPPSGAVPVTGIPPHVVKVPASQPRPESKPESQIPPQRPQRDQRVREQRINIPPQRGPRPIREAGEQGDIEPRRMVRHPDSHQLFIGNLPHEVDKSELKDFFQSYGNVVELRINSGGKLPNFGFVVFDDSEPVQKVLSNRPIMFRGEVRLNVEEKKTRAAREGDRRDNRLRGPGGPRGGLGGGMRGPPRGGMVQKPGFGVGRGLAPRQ"}
{"Strand": "UGAGUAGAUCUAGAAAUGACAGUAUGACUUUGUUUCUAACAGCUCCAAAAUGGAUCAAAAUGUUUGUUUUGGAUGAAGCAGAUGAAAUGU", "log2 enrichment": -3.01}
{"Strand": "UAACUUUAGAGGAGGAUCUGAUGGAUAUGGCAGUGGACGUGGAUUUGGGGAUGGCUAUAAUGGGUAGGGAGGAGGACCUGGAGGUGGCAA", "log2 enrichment": 0.646}
{"Strand": "CUGUGCUACACAUCGUAUGUACCGAAUCGGGAAAAAAGGGGAAAAAAGGGGAAAAAAGGGGAAAGUAUUAUGUUACGCCGUUCGGAUCUG", "log2 enrichment": -0.486}
{"Strand": "UGGCCCUGGUGGCAUGCGGGGAGGAAGAGGUGGCCUCAUGGAUCGUGGUGGUCCCGGUGGAAUGUUCAGAGGUGGCCGUGGUGGAGACAC", "log2 enrichment": 0.0839}
{"Strand": "CUCAAGUCCUGUGCUACACAUCGUAUGUACCGAAUCGGCCGGGGCCGGGCCGGAAAGUAUUAUGUUACGCCGUUCGGAUCUGCACUUCCA", "log2 enrichment": -0.34}
{"Strand": "UGGGAGGUGGAUUUUGUUUAUUUUUUUAGCUCAUUUUCAGGGGUGGGAAUUUUUUUUUAAUAUGUGUCAUGAAUAAAGUUGUUUUUGAAA", "log2 enrichment": -0.0895}
{"Strand": "CCUGUGCUACACAUCGUAUGUACCGAAUCGGGGUUUUUUUGGGUUUUUUUGGUUUUUUUGGAAAGUAUUAUGUUACGCCGUUCGGAUCUG", "log2 enrichment": -0.629}
{"Strand": "CAAGUCCUGUGCUACACAUCGUAUGUACCGAAUCGGGUUUGGGUUUUUGGGUGGGAAAGUAUUAUGUUACGCCGUUCGGAUCUGCACUUC", "log2 enrichment": 0.604}
{"note": "Some of these lines once more (sample 1):"}
{"target": "MAP2K2 (Homo sapiens, UniProt P36507)", "remaining activity [%]": 91}
{"target": "TEK (Homo sapiens, UniProt Q02763)", "remaining activity [%]": 101}
{"target": "MAPK3 (Homo sapiens, UniProt P27361)", "remaining activity [%]": 98.2}
{"target": "EPHA3 (Homo sapiens, UniProt P29320)", "remaining activity [%]": 95}
{"target": "ACVR1B (Homo sapiens, UniProt P36896)", "remaining activity [%]": 107}
{"target": "LCK (Homo sapiens, UniProt P06239)", "remaining activity [%]": 93.7}
{"target": "GSK3B (Homo sapiens, UniProt P49841)", "remaining activity [%]": 109}
